Experimental data from different studies.
A part holds a random share of what one study measured. Positions count from the first letter of the parent shown.

Block 1 — Molecule: HSPD1 (Homo sapiens, UniProt P10809); technique: cross-linking MS; medium: cells; with: BSPNO
| partner | cross-linked residues |
| --- | --- |
| ZMYM1 (Homo sapiens, UniProt Q5SVZ6) | K58 to K551 |
| LRRC7 (Homo sapiens, UniProt Q96NW7) | K58 to K604 |
| KIF20B (Homo sapiens, UniProt Q96Q89) | K58 to K1326 |
| CACNA1S (Homo sapiens, UniProt Q13698) | K58 to K162 |

Block 2 — technique: RNA Bind-n-Seq; form: RNA; medium: in vitro; tested at: 200 nM; notes: whole 134-nt RNA, ends assumed; with: 150 mM KCl; relative to: input library; direction: higher = stronger binding
Target: Fragile X messenger ribonucleoprotein 1, C-terminal low-complexity region (Fmr1, Mus musculus, UniProt P35922)
Constant ends, left off below: GGGAGUUCUACAGUCCGACGAUC … UGGAAUUCUCGGGUGUCAAGG
| Sequence | log2 enrichment |
| --- | --- |
| AAGUCCUGUGCUACACAUCGUAUGUACCGAAUCGGGUUUUGGGUUUUGGUUUUGGGGAAAGUAUUAUGUUACGCCGUUCGGAUCUGCACU | 0.249 |
| AGUCCUGUGCUACACAUCGUAUGUACCGAAUCGGUUUUUGGGUUUUUGGUUUUUGGGGAAAGUAUUAUGUUACGCCGUUCGGAUCUGCAC | -0.335 |
| CCUGUGCUACACAUCGUAUGUACCGAAUCGGGGAAAGGGGUUUUUUUGGGGUUUUUGGGGAAAGUAUUAUGUUACGCCGUUCGGAUCUGC | 0.471 |
| AGUCCUGUGCUACACAUCGUAUGUACCGAAUCGGGUUUGGGAAAAAGGGUUUUUGGGAAAGUAUUAUGUUACGCCGUUCGGAUCUGCACU | 0.364 |
| CUGUGCUACACAUCGUAUGUACCGAAUCGGGAAAAAAAGGGUUUUUUUGGGAAAAAAAGGGAAAGUAUUAUGUUACGCCGUUCGGAUCUG | -1.51 |
| UCCUGUGCUACACAUCGUAUGUACCGAAUCGGGAAAAAAAGGGUUUUUUUGGGAAAGGGAAAGUAUUAUGUUACGCCGUUCGGAUCUGCA | -0.281 |
| GCAGGAAGUAAAAACAAAUGGAAAUGCUUCGGAUAGUGGCAGGGGUGGGGGUUGCUAAGGAAAGGUUGGGAUGGGAGUGGGUAAAGAGUU | 0.145 |
| AAGUCCUGUGCUACACAUCGUAUGUACCGAAUCGGAAAAAAAGGUUUUUUUGGAGGAAAGUAUUAUGUUACGCCGUUCGGAUCUGCACUU | -1.36 |
| UCAAGUCCUGUGCUACACAUCGUAUGUACCGAAUCGGGGAAGGAAGGGGAAGGGGAAAGUAUUAUGUUACGCCGUUCGGAUCUGCACUUC | 0.724 |
| UGGCCCUGGUGGCAUGCGGGGAGGAACAGGUGGCCUCAUGGAUCGUGGUGGUCCCGGUGGAAUGUUCAGAGGUGGCCGUGGUGGAGACAG | -0.0437 |
| AAGUCCUGUGCUACACAUCGUAUGUACCGAAUCGGGGUUUGGGGUGGGGAAAGGGGAAAGUAUUAUGUUACGCCGUUCGGAUCUGCACUU | 0.98 |
| AAGUCCUGUGCUACACAUCGUAUGUACCGAAUCGGGGAAAAGGAAAAGGAAAAGGGGAAAGUAUUAUGUUACGCCGUUCGGAUCUGCACU | -0.119 |
| UAACUUUAGAGGAGGAUCUGAUGGAUACGGCAGUGGACGUGGAUUUGGGGAUGGCUAUAAUGGGUAUGGAGGAGGACCUGGAGGUGGCAA | 0.286 |
| CAAGUCCUGUGCUACACAUCGUAUGUACCGAAUCGGGUUUGGGAAAGGGAAAGGGAAAGUAUUAUGUUACGCCGUUCGGAUCUGCACUUC | 0.689 |

Block 3 — target: CCNA2, cyclin fold, Cln2 fusion (human); technique: yeast growth competition, sequencing; medium: yeast; notes: strong parent motif; relative to: not given; direction: higher = stronger binding
Starting sequence: SCAPER docking peptide (human); SNARRSLNFGGST; partner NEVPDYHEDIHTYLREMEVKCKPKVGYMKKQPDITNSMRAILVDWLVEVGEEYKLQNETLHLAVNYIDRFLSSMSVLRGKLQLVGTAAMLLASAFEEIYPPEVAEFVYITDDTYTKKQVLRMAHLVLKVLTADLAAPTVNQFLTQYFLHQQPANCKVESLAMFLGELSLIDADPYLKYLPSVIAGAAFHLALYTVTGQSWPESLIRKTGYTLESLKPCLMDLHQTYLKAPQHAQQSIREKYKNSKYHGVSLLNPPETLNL
| Variant | normalised enrichment score |
| --- | --- |
| SLARRSLNFGGST [N2L] | 5.27 |
| SNARRSLNFGIST [G11I] | 7.02 |
| SNARRILNFGGST [S6I] | 4.44 |
| SNARMSLNFGGST [R5M] | 3.01 |
| SNARESLNFGGST [R5E] | 0.547 |
| SNAARSLNFGGST [R4A] | 3.55 |
| SNARRSLNFGLST [G11L] | 5.16 |
| SNARRSLNFGEST [G11E] | 5.43 |
| SNARRSLNFGGSH [T13H] | 5.71 |
| SNARRSFNFGGST [L7F] | 1.84 |
| SNARRSLNFWGST [G10W] | 6.24 |
| SHARRSLNFGGST [N2H] | 6.55 |
| SNARASANFGGST [R5A L7A] | 0.255 |
| INARRSLNFGGST [S1I] | 5.84 |
| SNARRSLNYGGST [F9Y] | 3.97 |

Block 4 — technique: protein-binding microarray; form: double-stranded DNA, one strand shown; medium: in vitro; tested at: 250 nM; notes: 60-bp whole probe; with: salmon DNA 0.4 mg/ml; relative to: random background probes; direction: higher = stronger binding; constant ends, left off below: GCCTAGCAC … GTCTTGATTCGCTTGACGCTGCTG
Target: Interferon regulatory factor 5, full length, phosphomimetic (IRF5, Homo sapiens, UniProt Q13568-2, residues 1-514, K96S/S451D/S453D/S456D/S462D)
| Sequence | log fluorescence [z-score] |
| --- | --- |
| TTATGTATCGACTATCGGTTAGTGCTA | 8.52 |
| GACGGTATCGACTTTCGAGACGTGCTA | 6.26 |
| TCATCTATCAAAAATACAACTGTGCTA | 1.05 |
| GACCGTCTCCTTTTCCTGACGTGCTAG | 0.106 |
| AGTGTCATGTTTCTATGGGCGTGCTAG | 1.01 |
| TCAACTTTGAATTAGAAACTGTGCTAG | 0.327 |
| GACGGTATCTTTTTCCTGACGTGCTAG | 0.607 |
| TTCTTTTTTTTCTTTAAAAGGTGCTAG | 1.64 |
| TTAGGTAGCGGTATCGGTTAGTGCTAG | 4.16 |
| TTTGCTTTCCTTCTTGAACTGTGCTAG | 1.72 |
| TCAGATAACTTTTTTTTACTGTGCTAG | 0.62 |
| GACGATTTCCGGTTTCGAGACGTGCTA | 4.5 |
| TTAGGTATCCTTTTCCTTAAGTGCTAG | 0.733 |

Block 5 — technique: RNA Bind-n-Seq; form: RNA; medium: in vitro; tested at: not given; relative to: input RNA pool; direction: higher = stronger binding
Target: RING finger protein unkempt homolog, zinc fingers 1-6, GST-SBP tag (UNK, Homo sapiens, UniProt Q9C0B0, residues 30-357)
Notes: RNA with constant flanks, human and mouse sites, ends assumed
Constant ends, left off below: GGGAGUUCUACAGUCCGACGAUC … CAACAGAGGAUUGAGCAUCA
Residues (chain): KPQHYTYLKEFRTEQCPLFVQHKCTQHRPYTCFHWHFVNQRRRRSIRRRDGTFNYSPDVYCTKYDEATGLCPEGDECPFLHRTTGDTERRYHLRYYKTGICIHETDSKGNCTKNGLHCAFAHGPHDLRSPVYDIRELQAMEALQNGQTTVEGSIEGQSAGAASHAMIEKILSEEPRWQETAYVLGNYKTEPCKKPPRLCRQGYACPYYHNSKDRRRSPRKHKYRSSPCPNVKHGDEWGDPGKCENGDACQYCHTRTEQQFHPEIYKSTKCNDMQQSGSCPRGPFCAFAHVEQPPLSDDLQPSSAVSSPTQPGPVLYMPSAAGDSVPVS
| Sequence | bound/input enrichment [ratio] |
| --- | --- |
| AGACUAGCCUAUGCUGAAAACAUAGCUCUGCUGGCAGAAACAGCUCUGAGAUUCCUGGAAUUAGUACAGUUAAAAAAUCUUAAUAUGGAAAAUGACCCCAAUAAUGAAGAAAUAGAUGAG | 22.9 |
| GACAGCUUGCUCAGUAACUUGGGGUGCCAGUCUGCCUCUCAUGUAGGGCCCUUCAUCGAUAGCUACCGCUGCUUCCAACCAAAGCAGGAGGGGGCCUUCACCUGCUGGUCAGCAGUCACU | 0.0696 |
| GCCAUUGCUAUGCACUUCAACCUCUCUACCAGCCAGGUCCCUGCCAAGACAGACUGUGUCAUGUUCUUCGGACCUGUGGUCCCAGAUGGUUAUGGCAUCUGCUACAACCCCAUGGAGGCC | 0.118 |
| UGUGUGUGUGUGUGUGUGUGUGUGUGUGUGUGUGUGUGAAUUUUCUAUCGGCCUGGAUAUAUUAGCAGGGUUUGAAUGUAGUUUUGGCCUUUGGCCAUUAUAUACUUCUAUUAAAAUCCA | 2.04 |
| ACCUUGUUUAAUGCAGAAAGAGACCUUGAAAGGUCAGUCAUGAAAUCUGGUUUGAUUAUUAAUAGCUAUCUUUUAGGAAGAAGCUUUUUCCCUAUGUACGAUGUCAUACUGCAGACUUAA | 13.4 |
| AGCAAUAAAACAUAAUCACUCUAUUUGAAGAAAAUAUCUUGUUUUCUGCCAAUAGAUUUUUUAAAAUGUAGUCAGCAAAAUGGGGGUGGGGAAGCAGAGCAUGUCCUAGUUCAAUGUUGA | 0.803 |
| CAGAGAUGUUUCCCUGACUUCUCUACCAAAAAUGGCACUUUAACAAUAGGAAGUAAGAUGAUGUUUCAAGAUGGAAAUGGAGGGACAAGAAGUGUUGUAGAACUCGGGAUUGCUGCAAAU | 0.579 |
| UAUGCAGGUGCGUUGAGAGCUUCAGGAGAAAUGGCUUCAGCACAGUAUAUUACUGCAGCUCUUAGAGAUUUGUUUGAUUCCAUGGAUAAAACUUCUUCUAGUAUCCCACCUAUUAUUCUG | 1.31 |
| UUGAUCGAGUAAUGAUUAUCUAAGUAACUGUUGGGGACUGUGGAUAAAUUAGCAGGAGGGUAGUUUAUGAGAGCUGGCUUCAGGACGCUCUGUCCUCUGGAAGGAGUUUGUCUUCUGUGU | 0.854 |
| AAACCCCAGGCUGUUUCUUCAUUAAACUCUAGUCAUUCCAGGUCUCAUGGGAAUGAUCACCAUAGCAAGGAACAUCAACGCUCCAAAUCACCUCGGGACCCUGAUGCAAACUGGGAUUCU | 0.245 |
| GCUGGCCAAGAGGAGCUUCUCCAGUCAGAGACCCGUGGUUGACAGACAGAGCCGAAAGCUGGAGCCGGGAGGGUUUGGGGAGAAGCCCGUUAGGCCAGGUGGUGGUGACACCUCCCCUCG | 0.106 |

Some of these lines once more (block 4):
| Sequence | log fluorescence [z-score] |
| --- | --- |
| GACGGTATCTTTTTCCTGACGTGCTAG | 0.607 |
| TTCTTTTTTTTCTTTAAAAGGTGCTAG | 1.64 |
| TTTGCTTTCCTTCTTGAACTGTGCTAG | 1.72 |
| GACCGTCTCCTTTTCCTGACGTGCTAG | 0.106 |
| AGTGTCATGTTTCTATGGGCGTGCTAG | 1.01 |
| TCAGATAACTTTTTTTTACTGTGCTAG | 0.62 |
